{"data": "Assay results from different studies", "rep main protease": "Replicase polyprotein 1ab, main protease (rep, Severe acute respiratory syndrome coronavirus 2, UniProt P0DTD1)", "Spike glycoprotein": "Spike glycoprotein (Severe acute respiratory syndrome coronavirus 2, UniProt P0DTC2)", "note": "Lines come from different studies, so protocols differ. Several values in a cell are separate wells, animals, samples, runs or records. ± gives the spread as reported.", "sequence of UniProt Q7BQ98 (whole entry, looked up)": "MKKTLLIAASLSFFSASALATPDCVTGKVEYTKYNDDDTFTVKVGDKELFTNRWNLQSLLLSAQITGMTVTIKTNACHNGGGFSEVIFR", "sequence of UniProt Q8JUX6 (whole entry, looked up)": "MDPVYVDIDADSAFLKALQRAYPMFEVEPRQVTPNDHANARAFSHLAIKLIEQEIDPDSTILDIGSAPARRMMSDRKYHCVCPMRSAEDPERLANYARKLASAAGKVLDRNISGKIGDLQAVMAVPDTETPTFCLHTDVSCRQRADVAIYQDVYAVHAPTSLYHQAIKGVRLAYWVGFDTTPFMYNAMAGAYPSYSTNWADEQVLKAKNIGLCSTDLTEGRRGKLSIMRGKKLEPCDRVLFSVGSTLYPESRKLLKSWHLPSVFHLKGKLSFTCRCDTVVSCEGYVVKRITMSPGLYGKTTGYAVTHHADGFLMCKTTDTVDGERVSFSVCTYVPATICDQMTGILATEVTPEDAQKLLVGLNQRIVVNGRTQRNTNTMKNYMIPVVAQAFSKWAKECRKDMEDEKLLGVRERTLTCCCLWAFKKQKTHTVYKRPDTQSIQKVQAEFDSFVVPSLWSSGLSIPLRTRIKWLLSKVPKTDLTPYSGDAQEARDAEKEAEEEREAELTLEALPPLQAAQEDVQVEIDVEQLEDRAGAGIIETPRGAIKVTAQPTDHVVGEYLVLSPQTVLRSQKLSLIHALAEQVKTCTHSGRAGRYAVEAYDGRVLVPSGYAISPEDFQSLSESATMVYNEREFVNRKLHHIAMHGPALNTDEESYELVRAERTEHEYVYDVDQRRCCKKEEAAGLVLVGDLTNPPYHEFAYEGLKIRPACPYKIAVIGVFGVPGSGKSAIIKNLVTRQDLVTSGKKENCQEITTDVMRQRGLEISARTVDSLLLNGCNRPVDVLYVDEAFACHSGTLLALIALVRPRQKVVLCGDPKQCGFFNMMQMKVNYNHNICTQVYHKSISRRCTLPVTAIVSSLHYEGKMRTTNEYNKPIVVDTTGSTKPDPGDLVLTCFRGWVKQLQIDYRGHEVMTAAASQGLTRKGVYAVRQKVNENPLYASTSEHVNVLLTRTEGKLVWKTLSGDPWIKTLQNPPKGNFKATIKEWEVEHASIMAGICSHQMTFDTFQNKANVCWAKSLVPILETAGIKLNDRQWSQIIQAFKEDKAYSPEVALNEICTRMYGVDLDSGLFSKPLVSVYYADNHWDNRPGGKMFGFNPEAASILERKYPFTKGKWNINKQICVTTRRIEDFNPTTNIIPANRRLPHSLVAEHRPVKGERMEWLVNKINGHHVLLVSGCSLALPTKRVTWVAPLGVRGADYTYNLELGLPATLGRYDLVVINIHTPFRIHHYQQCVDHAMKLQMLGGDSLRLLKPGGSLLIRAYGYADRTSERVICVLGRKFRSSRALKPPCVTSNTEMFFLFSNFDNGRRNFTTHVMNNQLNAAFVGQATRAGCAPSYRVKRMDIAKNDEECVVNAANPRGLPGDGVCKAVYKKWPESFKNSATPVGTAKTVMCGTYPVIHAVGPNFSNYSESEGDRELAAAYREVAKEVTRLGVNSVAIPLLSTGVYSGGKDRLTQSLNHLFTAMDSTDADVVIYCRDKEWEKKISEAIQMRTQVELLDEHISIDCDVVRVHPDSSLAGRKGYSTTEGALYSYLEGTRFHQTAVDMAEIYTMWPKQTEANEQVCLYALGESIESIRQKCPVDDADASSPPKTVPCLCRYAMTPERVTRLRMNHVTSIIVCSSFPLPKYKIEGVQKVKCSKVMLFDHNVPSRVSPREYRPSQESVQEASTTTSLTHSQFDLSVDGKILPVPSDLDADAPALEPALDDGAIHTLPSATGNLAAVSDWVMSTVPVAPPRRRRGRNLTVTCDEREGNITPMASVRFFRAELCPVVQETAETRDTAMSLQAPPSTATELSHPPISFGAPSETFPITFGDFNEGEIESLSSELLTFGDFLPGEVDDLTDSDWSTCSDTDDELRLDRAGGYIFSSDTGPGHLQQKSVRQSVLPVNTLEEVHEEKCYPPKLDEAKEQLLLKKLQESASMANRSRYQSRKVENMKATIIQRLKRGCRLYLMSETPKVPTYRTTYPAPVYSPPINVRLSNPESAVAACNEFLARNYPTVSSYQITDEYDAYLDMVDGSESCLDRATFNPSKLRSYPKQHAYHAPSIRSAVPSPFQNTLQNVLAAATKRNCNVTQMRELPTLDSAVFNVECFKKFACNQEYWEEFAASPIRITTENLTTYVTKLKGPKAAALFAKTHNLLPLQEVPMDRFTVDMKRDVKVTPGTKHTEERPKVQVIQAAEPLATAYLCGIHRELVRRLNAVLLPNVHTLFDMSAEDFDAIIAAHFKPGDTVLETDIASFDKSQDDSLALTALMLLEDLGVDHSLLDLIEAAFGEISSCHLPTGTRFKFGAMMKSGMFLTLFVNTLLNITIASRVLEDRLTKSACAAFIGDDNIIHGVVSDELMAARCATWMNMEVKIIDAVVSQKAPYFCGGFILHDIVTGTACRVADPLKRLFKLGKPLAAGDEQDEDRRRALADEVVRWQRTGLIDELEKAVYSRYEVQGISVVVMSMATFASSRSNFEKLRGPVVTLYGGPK", "sequence of UniProt P03300 (whole entry, looked up)": "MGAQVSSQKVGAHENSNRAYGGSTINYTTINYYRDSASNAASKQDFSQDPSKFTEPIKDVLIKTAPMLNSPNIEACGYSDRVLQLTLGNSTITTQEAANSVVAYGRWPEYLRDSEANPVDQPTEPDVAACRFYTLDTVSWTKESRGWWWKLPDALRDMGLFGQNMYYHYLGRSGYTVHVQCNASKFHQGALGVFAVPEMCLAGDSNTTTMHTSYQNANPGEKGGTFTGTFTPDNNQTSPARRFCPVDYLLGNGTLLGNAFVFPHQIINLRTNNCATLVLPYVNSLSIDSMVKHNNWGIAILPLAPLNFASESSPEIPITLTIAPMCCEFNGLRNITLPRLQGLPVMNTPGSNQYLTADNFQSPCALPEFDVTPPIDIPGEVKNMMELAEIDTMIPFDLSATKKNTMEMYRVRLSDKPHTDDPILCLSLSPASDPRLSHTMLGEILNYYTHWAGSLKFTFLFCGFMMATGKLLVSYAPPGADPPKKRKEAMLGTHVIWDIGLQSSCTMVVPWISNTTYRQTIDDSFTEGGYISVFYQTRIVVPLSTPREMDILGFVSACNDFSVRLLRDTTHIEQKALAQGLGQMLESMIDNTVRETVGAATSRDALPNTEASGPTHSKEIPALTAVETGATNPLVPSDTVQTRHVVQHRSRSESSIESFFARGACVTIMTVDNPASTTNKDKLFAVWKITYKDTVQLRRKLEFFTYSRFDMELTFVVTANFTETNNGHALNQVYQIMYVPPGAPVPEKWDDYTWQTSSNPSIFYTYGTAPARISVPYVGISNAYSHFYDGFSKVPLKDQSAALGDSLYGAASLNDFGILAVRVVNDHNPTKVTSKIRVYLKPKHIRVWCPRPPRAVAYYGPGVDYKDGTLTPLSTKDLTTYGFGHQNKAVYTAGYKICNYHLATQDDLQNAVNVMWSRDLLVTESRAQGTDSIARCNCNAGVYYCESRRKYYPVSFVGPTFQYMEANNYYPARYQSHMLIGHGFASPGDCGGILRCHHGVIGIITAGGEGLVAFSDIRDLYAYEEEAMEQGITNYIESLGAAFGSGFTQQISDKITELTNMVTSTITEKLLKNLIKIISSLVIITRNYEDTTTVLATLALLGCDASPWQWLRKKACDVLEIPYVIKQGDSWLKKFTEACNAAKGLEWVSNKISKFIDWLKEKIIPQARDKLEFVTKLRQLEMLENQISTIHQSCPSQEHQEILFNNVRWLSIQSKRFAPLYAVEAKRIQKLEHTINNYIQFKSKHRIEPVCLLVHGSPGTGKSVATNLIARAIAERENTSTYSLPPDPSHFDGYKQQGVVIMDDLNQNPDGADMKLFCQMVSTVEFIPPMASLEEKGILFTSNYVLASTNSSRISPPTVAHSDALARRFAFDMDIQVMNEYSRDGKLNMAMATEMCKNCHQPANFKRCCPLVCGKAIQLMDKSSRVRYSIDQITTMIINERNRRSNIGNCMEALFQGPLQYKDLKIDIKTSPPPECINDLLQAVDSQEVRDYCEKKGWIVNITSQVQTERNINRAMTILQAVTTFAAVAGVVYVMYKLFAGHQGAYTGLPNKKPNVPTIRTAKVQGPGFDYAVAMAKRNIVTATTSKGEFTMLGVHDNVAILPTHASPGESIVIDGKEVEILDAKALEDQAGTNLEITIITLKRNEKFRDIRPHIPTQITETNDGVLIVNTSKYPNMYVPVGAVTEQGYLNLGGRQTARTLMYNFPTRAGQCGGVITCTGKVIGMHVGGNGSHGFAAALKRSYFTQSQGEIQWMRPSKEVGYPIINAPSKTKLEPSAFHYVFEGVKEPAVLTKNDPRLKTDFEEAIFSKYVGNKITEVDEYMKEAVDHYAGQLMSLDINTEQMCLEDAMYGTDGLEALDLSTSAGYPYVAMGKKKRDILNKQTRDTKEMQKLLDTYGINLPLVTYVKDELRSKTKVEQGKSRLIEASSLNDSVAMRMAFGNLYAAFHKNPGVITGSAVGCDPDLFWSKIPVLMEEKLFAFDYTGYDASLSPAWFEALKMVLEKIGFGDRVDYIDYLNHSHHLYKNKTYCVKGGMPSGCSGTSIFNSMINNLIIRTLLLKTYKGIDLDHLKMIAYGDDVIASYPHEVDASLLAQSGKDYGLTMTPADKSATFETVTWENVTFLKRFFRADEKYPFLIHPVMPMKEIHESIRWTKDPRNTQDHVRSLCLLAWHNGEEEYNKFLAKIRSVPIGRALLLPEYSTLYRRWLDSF"}
{"Compound": "CC[C@H](C)[C@H](NC(=O)[C@@H]1CCCN1C(=O)[C@H](C)NC(=O)[C@@H]1CSSC[C@@H]2NC(=O)[C@H](CC(=O)O)NC(=O)[C@H](CCCNC(=N)N)NC(=O)[C@H](CCC(=O)O)NC(=O)[C@H](CCCNC(=N)N)NC(=O)CNC(=O)[C@H](CC(=O)O)NC(=O)[C@@H]3CSSC[C@H](NC(=O)[C@H](CCC(=O)O)NC(=O)[C@H](CC(C)C)NC(=O)CNC(=O)[C@H](C)NC(=O)[C@H](CSSC[C@H](NC(=O)[C@H](Cc4ccccc4)NC(=O)[C@@H](N)CO)C(=O)N[C@@H](CC(C)C)C(=O)N[C@@H](C(C)C)C(=O)N[C@@H](CCCCN)C(=O)N[C@@H](Cc4c[nH]c5ccccc45)C(=O)N[C@@H](CCCCN)C(=O)N[C@@H](CCC(N)=O)C(=O)N3)NC2=O)C(=O)N[C@@H](Cc2c[nH]c3ccccc23)C(=O)N[C@@H](CCCCN)C(=O)N[C@@H](CCCNC(=N)N)C(=O)N[C@@H](CO)C(=O)NCC(=O)N[C@@H](CC(N)=O)C(=O)N[C@@H](CCCCN)C(=O)N[C@@H](CO)C(=O)N[C@@H](CO)C(=O)N[C@@H](C(C)C)C(=O)N1)C(=O)N[C@H](C(=O)O)[C@@H](C)O", "target or system": "ASIC1 (Homo sapiens, UniProt P78348)", "test": "ion current, outside-out patch clamp", "test system": "HEK-293T", "setting": "100 nM", "scale": "relative to: same patch before toxin", "quantity": "rise time slowing", "result": "18 ± 6 fold"}
{"Compound": "O=C(Cc1cccnc1)N1CCC[C@H]([C@H]2CCN(C(=O)C3=CO[C@H]4C=CC(F)=CC4=C3)C2)C1", "target or system": "rep main protease", "test": "enzyme activity, inhibitor", "setting": "5 µM, run 2", "quantity": "inhibition", "result": "15.4%"}
{"Compound": "Nc1ncnc2c([C@@H]3N[C@H](CO)[C@@H](O)[C@H]3O)c[nH]c12", "target or system": "Nipah henipavirus", "test": "viral replication", "test system": "HeLa, Malaysia", "setting": "50 µM", "quantity": "inhibition", "result": "39.4%"}
{"Compound": "O=C(c1cnn2c1CCC2)N1CCCCC[C@@H](Nc2nc(-c3cccnc3)nc3c2CCC3)C1", "target or system": "rep main protease", "test": "enzyme activity, inhibitor", "setting": "5 µM, mean of runs", "quantity": "inhibition", "result": "11.9%"}
{"Compound": "Cc1cc(C)c(/C=C2/C(=O)Nc3ccc(Cl)cc32)[nH]1", "target or system": "rep main protease", "test": "viral replication, mKate2 reporter", "test system": "SARS-CoV-2", "setting": "20 µM", "quantity": "inhibition", "result": "-0.959%"}
{"Compound": "Nc1ncnc2c1ncn2[C@@H]1O[C@H](COP(=O)(O)OP(=O)(O)OP(=O)(O)O)[C@@H](O)[C@H]1O", "target or system": "Genome polyprotein, 3D RNA polymerase (Human poliovirus 1 Mahoney, UniProt P03300)", "test": "substrate", "quantity": "kpol", "result": "10 ± 1 s⁻¹"}
{"Compound": "CC[C@H](C)[C@H](NC(=O)[C@H](CC(C)C)NC(=O)[C@H](Cc1c[nH]c2ccccc12)NC(=O)[C@H](CCC(N)=O)NC(=O)[C@@H](NC(=O)[C@H](Cc1ccccc1)NC(=O)[C@H](C)NC(=O)[C@H](CCCCNC(=O)COCCOCCNC(=O)COCCOCCNC(=O)CC[C@H](NC(=O)CCCCCCCCCCCCCCCCCCC(=O)O)C(=O)O)NC(=O)[C@H](CCC(N)=O)NC(=O)[C@H](C)NC(=O)[C@@H](NC(=O)[C@H](CCCCN)NC(=O)[C@H](CC(=O)O)NC(=O)[C@H](CC(C)C)NC(=O)C(C)(C)NC(=O)[C@@H](NC(=O)[C@H](CO)NC(=O)[C@H](Cc1ccc(O)cc1)NC(=O)[C@H](CC(=O)O)NC(=O)[C@H](CO)NC(=O)[C@@H](NC(=O)[C@H](Cc1ccccc1)NC(=O)[C@@H](NC(=O)CNC(=O)[C@H](CCC(=O)O)NC(=O)C(C)(C)NC(=O)[C@@H](N)Cc1ccc(O)cc1)[C@@H](C)O)[C@@H](C)O)[C@@H](C)CC)[C@@H](C)CC)C(C)C)C(=O)N[C@@H](C)C(=O)NCC(=O)NCC(=O)N1CCC[C@H]1C(=O)N[C@@H](CO)C(=O)N[C@@H](CO)C(=O)NCC(=O)N[C@@H](C)C(=O)N1CCC[C@H]1C(=O)N1CCC[C@H]1C(=O)N1CCC[C@H]1C(=O)N[C@@H](CO)C(N)=O", "test": "measured: treatment-emergent application site reaction", "test system": "healthy subjects", "setting": "4.5 mg, multiple ascending dose", "quantity": "subjects with adverse event", "result": "0%"}
{"Compound": "CNC(=O)[C@@H](NC(=O)[C@H](CC(C)C)[C@H](O)C(=O)NO)C(C)(C)C", "target or system": "Daboia russelii venom proteases (SVMP)", "test": "protease activity, inhibitor", "test system": "AP population", "setting": "0.1 µM, with: azocasein substrate", "scale": "relative to: venom alone", "quantity": "remaining activity", "result": "98.4% and 96.9% and 99.1%"}
{"Compound": "CC[C@@H](Oc1nc(Oc2cccc(-c3cccc(CN)c3)c2)c(F)cc1F)C(=O)O", "target or system": "rep main protease", "test": "viral replication, Gluc reporter", "test system": "SARS-CoV-2", "setting": "20 µM", "quantity": "inhibition", "result": "1.49%"}
{"Compound": "O=C(/C=C/c1ccc(O)c(O)c1)OC[C@H]1O[C@@H](OCCc2ccc(O)c(O)c2)[C@H](O)[C@@H](O)[C@@H]1O", "target or system": "Spike glycoprotein", "test": "binding", "quantity": "kon", "result": "317 M⁻¹ s⁻¹"}
{"Compound": "CNC(=O)[C@H](Cc1ccccc1)NC(=O)[C@H](CC(C)C)[C@H](CSc1cccs1)C(=O)NO", "target or system": "rep main protease", "test": "reporter gene (Gaussia luciferase), inhibitor", "setting": "20 µM", "quantity": "inhibition", "result": "-0.514%"}
{"Compound": "Cc1[nH]cnc1C(=O)NC[C@H](NC(=O)c1c(Cl)ccnc1F)c1ccc2ccccc2c1", "target or system": "rep main protease", "test": "enzyme activity, inhibitor", "setting": "5 µM, mean of runs", "quantity": "inhibition", "result": "11%"}
{"Compound": "O=C(O)c1cc(OCc2cn([C@@H]3O[C@H](CO)[C@H](O[C@H]4O[C@H](CO)[C@H](O)[C@H](O)[C@H]4O)[C@H](O)[C@H]3O)nn2)cc(OCc2cn([C@@H]3O[C@H](CO)[C@H](O[C@H]4O[C@H](CO)[C@H](O)[C@H](O)[C@H]4O)[C@H](O)[C@H]3O)nn2)c1", "target or system": "Shiga toxin subunit B (stxB, Shigella dysenteriae, UniProt Q7BQ98)", "test system": "Escherichia coli", "quantity": "Hill slope", "result": -0.789}
{"Compound": "O=c1cc(-c2ccc(O)c(O)c2)oc2cc(O)cc(O)c12", "target or system": "Spike glycoprotein", "test": "binding, BLI", "quantity": "koff", "result": "0.017 s⁻¹"}
{"Compound": "COC(=O)C=Cc1ccccc1", "target or system": "rep main protease", "test": "reporter gene (mKate2), inhibitor", "setting": "20 µM", "quantity": "inhibition", "result": "-0.598%"}
{"Compound": "Cc1cc(N[C@H]2C[C@H]3CC[C@@H]2N(C(=O)c2cnc4[nH]ccc4c2)C3)nc(-c2cccnc2)n1", "target or system": "rep main protease", "test": "enzyme activity, inhibitor", "setting": "5 µM, run 2", "quantity": "inhibition", "result": "11.4%"}
{"Compound": "O=C(N1CCC2(CC1)C[C@H](CN1CCCCS1(=O)=O)CCO2)C1(c2ccccc2)CCCC1", "target or system": "Polyprotein P1234, nsP2 (Chikungunya virus, UniProt Q8JUX6)", "test": "RNA strand separation, inhibitor, FRET", "scale": "relative to: compound over (S)-enantiomer, higher = more potent than (S)", "quantity": "potency ratio", "result": "200 fold"}
{"Compound": "Cn1cnc(Cn2c(=O)[nH]/c(=N\\c3cc4cn(C)nc4cc3Cl)n(Cc3cc(F)c(F)cc3F)c2=O)n1", "test system": "human, all renal function groups", "setting": "oral, 375 mg, hypertriglyceridaemia TEAE, Mild severity", "quantity": "patients with adverse event", "result": "0%"}
{"note": "Some of these lines once more:"}
{"Compound": "Nc1ncnc2c1ncn2[C@@H]1O[C@H](COP(=O)(O)OP(=O)(O)OP(=O)(O)O)[C@@H](O)[C@H]1O", "target or system": "Genome polyprotein, 3D RNA polymerase (Human poliovirus 1 Mahoney, UniProt P03300)", "test": "substrate", "quantity": "kpol", "result": "10 ± 1 s⁻¹"}
{"Compound": "CC[C@H](C)[C@H](NC(=O)[C@H](CC(C)C)NC(=O)[C@H](Cc1c[nH]c2ccccc12)NC(=O)[C@H](CCC(N)=O)NC(=O)[C@@H](NC(=O)[C@H](Cc1ccccc1)NC(=O)[C@H](C)NC(=O)[C@H](CCCCNC(=O)COCCOCCNC(=O)COCCOCCNC(=O)CC[C@H](NC(=O)CCCCCCCCCCCCCCCCCCC(=O)O)C(=O)O)NC(=O)[C@H](CCC(N)=O)NC(=O)[C@H](C)NC(=O)[C@@H](NC(=O)[C@H](CCCCN)NC(=O)[C@H](CC(=O)O)NC(=O)[C@H](CC(C)C)NC(=O)C(C)(C)NC(=O)[C@@H](NC(=O)[C@H](CO)NC(=O)[C@H](Cc1ccc(O)cc1)NC(=O)[C@H](CC(=O)O)NC(=O)[C@H](CO)NC(=O)[C@@H](NC(=O)[C@H](Cc1ccccc1)NC(=O)[C@@H](NC(=O)CNC(=O)[C@H](CCC(=O)O)NC(=O)C(C)(C)NC(=O)[C@@H](N)Cc1ccc(O)cc1)[C@@H](C)O)[C@@H](C)O)[C@@H](C)CC)[C@@H](C)CC)C(C)C)C(=O)N[C@@H](C)C(=O)NCC(=O)NCC(=O)N1CCC[C@H]1C(=O)N[C@@H](CO)C(=O)N[C@@H](CO)C(=O)NCC(=O)N[C@@H](C)C(=O)N1CCC[C@H]1C(=O)N1CCC[C@H]1C(=O)N1CCC[C@H]1C(=O)N[C@@H](CO)C(N)=O", "test": "measured: treatment-emergent application site reaction", "test system": "healthy subjects", "setting": "4.5 mg, multiple ascending dose", "quantity": "subjects with adverse event", "result": "0%"}
